Assay results from different studies.
A part holds a random share of what one study measured. Positions count from the first letter of the parent shown.

Series 1
Target: Sal-like protein 4, full length isoform A (SALL4, Homo sapiens, UniProt Q9UJQ4, residues 1-1053)
UniProt Q9UJQ4, sequence (whole entry, looked up): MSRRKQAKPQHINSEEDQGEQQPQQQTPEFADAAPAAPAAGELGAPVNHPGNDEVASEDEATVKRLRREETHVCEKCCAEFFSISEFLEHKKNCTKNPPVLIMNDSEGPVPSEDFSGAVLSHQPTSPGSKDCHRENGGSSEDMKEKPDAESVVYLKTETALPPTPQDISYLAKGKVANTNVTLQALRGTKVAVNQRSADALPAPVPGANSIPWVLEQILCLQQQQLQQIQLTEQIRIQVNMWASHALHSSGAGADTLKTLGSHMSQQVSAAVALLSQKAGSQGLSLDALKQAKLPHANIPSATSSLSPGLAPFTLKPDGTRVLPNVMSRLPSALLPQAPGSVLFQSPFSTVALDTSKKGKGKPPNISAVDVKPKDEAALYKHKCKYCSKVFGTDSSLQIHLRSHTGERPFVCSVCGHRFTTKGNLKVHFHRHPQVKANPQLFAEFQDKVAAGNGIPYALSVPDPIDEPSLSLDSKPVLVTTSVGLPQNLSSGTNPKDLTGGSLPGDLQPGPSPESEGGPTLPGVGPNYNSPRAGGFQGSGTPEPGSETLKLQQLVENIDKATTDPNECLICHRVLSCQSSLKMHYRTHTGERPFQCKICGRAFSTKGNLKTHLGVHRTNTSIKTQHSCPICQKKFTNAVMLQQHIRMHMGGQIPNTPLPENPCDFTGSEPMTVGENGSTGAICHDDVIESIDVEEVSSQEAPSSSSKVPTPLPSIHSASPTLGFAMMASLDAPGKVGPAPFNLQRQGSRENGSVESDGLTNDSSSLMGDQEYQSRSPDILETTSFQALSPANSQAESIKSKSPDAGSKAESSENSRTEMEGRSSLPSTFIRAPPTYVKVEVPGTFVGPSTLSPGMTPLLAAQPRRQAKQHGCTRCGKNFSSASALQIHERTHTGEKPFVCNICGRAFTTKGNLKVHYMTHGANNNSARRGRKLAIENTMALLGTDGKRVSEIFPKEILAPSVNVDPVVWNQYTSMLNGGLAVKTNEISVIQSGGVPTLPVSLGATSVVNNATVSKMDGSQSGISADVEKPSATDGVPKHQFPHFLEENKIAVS
Method: universal PBM
Molecule type: double-stranded DNA, one strand shown
Medium: in vitro
Tested at: 600 nM
Notes: 8-mer, flanks averaged, mean of replicates
Reading: higher = stronger binding
Measurement: E-score
AAAGGGGA: -0.17
AGACAATG: 0.125
CATCTAGG: -0.111
AGGAGTAG: -0.0753
AAACACCC: -0.134
AACCAGGT: -0.182
GGGCATGA: -0.237

Series 2
Target: NFE2L2, bZIP domain (human)
Method: DHFR protein complementation
Medium: yeast
Notes: single substitutions, most at no-binding floor
Reference: wild-type JUN-FOS pair
Reading: higher = stronger binding
Measurement: binding fitness
Starting sequence: JUN, bZIP domain (human); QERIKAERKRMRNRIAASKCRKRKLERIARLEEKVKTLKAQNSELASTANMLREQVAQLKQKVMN; partner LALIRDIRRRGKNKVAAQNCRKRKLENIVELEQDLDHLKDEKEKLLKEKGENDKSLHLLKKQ
A49N: -1.45 natural log
K39L: -1.52 natural log
A46F: -1.15 natural log
A29L: -1.45 natural log
K39Y: -1.52 natural log
R30V: -1.42 natural log
T48P: -1.31 natural log

Series 3
Target: CCNA1, cyclin fold, Cln2 fusion (human)
Method: yeast growth competition, sequencing
Medium: yeast
Notes: weak parent motif
Reference: not given
Reading: higher = stronger binding
Measurement: normalised enrichment score
Starting sequence: RRM2 docking peptide (human); SKTARRIFQEPTE
SATARRIFQEPTE [K2A]: 0.175
SKTARRIFAEPTE [Q9A]: 0.209
SKTARRAFQEPTE [I7A]: 0.091
AKTARRIFQEPTE [S1A]: 0.0402
SKTARRIFQAPTE [E10A]: 0.163
SKTARRIAQEPTE [F8A]: 0.296

Mixed results
PhoQ, residues 284 288 289 292 302 303 GANMMA  fold induction (PhoP, residues 12 14 15 18 19 SPWRL (Escherichia coli, UniProt P23836); Sort-seq, item: YFP reporter; E. coli; PhoQ-PhoP variant library, with: 10 µM Mg2+; reference: high Mg2+ state, higher = stronger signaling): 0.737

For quick reference, copied from above (series 2):
A46F: -1.15 natural log
